{"data": "Published values of several laboratories", "note": "Numbered parts are unrelated; each lists some results of a single study. Positions count from the first letter of the parent shown.", "chain of UniProt Q9BQI3 (whole entry, looked up)": "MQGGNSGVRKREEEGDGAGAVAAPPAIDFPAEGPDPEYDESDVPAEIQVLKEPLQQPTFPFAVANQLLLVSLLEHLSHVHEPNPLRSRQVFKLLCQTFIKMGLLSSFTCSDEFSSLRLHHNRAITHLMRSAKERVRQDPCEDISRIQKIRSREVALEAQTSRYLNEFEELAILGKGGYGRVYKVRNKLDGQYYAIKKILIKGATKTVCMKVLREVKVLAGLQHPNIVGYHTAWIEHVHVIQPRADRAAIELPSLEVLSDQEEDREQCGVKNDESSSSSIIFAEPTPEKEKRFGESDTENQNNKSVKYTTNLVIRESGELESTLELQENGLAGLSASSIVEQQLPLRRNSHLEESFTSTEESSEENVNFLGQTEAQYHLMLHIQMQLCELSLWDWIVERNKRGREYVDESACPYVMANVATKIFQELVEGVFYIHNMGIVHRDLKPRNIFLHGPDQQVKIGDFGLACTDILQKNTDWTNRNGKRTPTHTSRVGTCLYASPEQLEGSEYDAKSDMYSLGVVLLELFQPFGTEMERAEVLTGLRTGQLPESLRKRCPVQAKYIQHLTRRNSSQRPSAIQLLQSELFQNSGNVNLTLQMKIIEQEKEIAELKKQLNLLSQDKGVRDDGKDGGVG", "chain of UniProt Q15831 (whole entry, looked up)": "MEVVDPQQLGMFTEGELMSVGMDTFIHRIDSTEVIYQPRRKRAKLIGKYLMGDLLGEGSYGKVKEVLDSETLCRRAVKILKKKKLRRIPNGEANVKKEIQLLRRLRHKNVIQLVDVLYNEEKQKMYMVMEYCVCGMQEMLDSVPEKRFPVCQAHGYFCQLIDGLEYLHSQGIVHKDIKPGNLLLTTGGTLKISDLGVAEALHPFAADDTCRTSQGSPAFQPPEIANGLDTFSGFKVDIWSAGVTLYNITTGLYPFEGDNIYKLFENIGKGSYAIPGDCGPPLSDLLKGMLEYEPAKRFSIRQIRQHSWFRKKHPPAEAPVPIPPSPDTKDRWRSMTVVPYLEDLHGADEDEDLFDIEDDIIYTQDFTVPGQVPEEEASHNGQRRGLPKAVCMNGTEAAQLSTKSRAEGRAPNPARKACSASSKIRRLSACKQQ", "chain of UniProt Q13976 (whole entry, looked up)": "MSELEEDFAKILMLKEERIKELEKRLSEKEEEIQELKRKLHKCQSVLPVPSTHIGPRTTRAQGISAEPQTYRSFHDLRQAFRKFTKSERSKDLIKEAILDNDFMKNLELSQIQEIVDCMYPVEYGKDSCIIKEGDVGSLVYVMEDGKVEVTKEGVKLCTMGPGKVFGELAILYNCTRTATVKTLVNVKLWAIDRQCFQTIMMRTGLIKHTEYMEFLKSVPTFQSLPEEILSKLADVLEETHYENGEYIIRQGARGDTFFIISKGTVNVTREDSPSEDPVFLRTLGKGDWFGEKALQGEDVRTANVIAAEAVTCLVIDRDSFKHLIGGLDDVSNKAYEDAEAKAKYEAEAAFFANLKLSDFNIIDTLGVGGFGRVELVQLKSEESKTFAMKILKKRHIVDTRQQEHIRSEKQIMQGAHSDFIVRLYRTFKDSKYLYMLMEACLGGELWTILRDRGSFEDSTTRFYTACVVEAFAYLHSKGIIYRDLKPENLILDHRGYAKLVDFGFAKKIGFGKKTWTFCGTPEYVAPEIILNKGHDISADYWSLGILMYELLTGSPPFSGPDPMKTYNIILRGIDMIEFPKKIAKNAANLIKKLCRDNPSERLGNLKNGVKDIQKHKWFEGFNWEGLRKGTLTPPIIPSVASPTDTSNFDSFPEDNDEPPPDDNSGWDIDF", "chain of UniProt P37173 (whole entry, looked up)": "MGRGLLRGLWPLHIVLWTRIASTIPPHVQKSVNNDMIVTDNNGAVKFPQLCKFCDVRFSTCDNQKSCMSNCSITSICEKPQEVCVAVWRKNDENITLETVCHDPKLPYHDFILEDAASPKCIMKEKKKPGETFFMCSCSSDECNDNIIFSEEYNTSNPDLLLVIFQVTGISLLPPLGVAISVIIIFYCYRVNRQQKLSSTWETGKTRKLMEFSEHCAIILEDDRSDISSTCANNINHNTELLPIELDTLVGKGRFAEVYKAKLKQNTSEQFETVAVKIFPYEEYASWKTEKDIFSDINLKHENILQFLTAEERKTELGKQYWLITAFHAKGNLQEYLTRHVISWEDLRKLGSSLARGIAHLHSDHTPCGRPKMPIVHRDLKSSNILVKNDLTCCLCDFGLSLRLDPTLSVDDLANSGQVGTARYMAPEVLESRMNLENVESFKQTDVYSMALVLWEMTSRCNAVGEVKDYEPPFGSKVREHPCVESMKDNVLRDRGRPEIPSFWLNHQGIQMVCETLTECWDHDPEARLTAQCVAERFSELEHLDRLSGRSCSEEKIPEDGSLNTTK", "chain of UniProt O95747 (whole entry, looked up)": "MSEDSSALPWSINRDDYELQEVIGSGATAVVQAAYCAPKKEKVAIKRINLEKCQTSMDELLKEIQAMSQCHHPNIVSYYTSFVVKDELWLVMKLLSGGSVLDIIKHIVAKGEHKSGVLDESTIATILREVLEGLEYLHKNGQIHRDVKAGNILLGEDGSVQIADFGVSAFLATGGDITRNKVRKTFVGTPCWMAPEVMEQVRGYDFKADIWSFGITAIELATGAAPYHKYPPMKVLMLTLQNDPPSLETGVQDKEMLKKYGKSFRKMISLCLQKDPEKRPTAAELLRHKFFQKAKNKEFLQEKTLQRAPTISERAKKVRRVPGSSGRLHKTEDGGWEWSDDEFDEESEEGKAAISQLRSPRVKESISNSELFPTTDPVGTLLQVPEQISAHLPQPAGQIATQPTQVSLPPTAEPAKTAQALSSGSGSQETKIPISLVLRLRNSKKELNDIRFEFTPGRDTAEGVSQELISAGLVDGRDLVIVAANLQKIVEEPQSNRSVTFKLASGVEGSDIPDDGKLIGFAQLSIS", "chain of UniProt O96017 (whole entry, looked up)": "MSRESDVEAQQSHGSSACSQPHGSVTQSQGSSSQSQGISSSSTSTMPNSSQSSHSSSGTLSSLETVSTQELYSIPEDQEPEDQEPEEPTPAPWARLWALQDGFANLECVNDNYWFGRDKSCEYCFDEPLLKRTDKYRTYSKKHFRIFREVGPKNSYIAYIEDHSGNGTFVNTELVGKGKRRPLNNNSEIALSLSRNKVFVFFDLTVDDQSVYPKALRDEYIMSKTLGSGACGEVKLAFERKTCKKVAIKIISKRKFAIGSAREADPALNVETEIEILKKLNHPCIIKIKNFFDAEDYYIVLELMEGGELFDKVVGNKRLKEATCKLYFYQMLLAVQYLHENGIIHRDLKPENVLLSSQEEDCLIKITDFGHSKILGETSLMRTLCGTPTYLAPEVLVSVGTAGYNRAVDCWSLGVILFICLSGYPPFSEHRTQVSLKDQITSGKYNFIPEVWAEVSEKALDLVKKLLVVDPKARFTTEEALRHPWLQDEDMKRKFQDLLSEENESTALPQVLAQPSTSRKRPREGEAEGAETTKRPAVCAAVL", "chain of UniProt Q14164 (whole entry, looked up)": "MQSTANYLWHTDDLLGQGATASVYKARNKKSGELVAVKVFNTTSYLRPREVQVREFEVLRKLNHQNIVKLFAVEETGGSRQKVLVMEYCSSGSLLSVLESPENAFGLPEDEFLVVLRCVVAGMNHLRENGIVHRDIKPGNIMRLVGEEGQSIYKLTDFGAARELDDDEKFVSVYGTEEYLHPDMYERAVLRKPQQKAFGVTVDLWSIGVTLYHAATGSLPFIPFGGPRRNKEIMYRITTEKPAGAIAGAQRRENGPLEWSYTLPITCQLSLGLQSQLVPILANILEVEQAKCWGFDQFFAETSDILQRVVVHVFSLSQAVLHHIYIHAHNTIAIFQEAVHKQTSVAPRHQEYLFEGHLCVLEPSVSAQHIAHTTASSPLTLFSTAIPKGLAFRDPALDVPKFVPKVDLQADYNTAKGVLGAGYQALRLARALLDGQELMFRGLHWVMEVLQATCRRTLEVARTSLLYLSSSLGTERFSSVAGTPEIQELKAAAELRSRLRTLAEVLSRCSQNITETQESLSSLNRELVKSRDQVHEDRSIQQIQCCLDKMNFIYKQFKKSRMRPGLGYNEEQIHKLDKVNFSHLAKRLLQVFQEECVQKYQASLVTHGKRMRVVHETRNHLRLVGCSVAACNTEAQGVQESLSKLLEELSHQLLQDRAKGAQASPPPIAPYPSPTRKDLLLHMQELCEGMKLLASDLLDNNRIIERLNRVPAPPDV", "chain of UniProt P05771 (whole entry, looked up)": "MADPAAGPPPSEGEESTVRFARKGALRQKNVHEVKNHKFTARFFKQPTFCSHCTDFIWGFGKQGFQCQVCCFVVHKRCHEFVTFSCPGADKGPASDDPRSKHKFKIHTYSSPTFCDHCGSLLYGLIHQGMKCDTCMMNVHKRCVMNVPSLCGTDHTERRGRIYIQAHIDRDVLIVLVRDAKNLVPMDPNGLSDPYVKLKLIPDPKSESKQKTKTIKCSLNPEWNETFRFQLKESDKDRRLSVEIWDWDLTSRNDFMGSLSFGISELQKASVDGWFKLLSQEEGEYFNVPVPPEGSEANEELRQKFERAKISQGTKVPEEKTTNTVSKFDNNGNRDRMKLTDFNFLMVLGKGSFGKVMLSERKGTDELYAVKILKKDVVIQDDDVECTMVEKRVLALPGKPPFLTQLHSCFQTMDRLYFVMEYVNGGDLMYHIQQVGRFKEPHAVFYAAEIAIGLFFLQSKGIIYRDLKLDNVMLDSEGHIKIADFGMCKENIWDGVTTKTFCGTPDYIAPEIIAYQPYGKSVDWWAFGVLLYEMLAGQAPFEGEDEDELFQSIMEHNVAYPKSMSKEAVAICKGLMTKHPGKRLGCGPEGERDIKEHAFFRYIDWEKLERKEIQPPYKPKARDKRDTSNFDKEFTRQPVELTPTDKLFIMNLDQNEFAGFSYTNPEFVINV"}
{"data": "Series 1", "Compound": "O=Nc1c(-c2c(O)[nH]c3cc(Br)ccc23)[nH]c2ccccc12", "observed": "enzyme activity", "mode": "inhibitor", "tested at": "0.5 µM", "relative to": "control"}
{"target": "cGMP-dependent protein kinase 1, isoform beta (PRKG1, Homo sapiens, UniProt Q13976)", "remaining activity [%]": 93.6}
{"target": "IKBKE (Homo sapiens, UniProt Q14164)", "remaining activity [%]": 66.3}
{"target": "IKBKB (Homo sapiens, UniProt O14920)", "remaining activity [%]": 85.4}
{"target": "TGFBR1 (Homo sapiens, UniProt P36897)", "remaining activity [%]": 99.8}
{"target": "MAP3K3 (Homo sapiens, UniProt Q99759)", "remaining activity [%]": 107}
{"target": "STK11 (Homo sapiens, UniProt Q15831)", "remaining activity [%]": 42.1}
{"target": "DAPK1 (Homo sapiens, UniProt P53355)", "remaining activity [%]": 90}
{"target": "DAPK2 (Homo sapiens, UniProt Q9UIK4)", "remaining activity [%]": 91}
{"target": "GRK3 (Homo sapiens, UniProt P35626)", "remaining activity [%]": 104}
{"target": "CAMKK2 (Homo sapiens, UniProt Q96RR4)", "remaining activity [%]": 70.1}
{"target": "Cyclin-dependent kinase 4, with cyclin D1 (CDK4, Homo sapiens, UniProt P11802)", "remaining activity [%]": 93.4}
{"target": "CAMK2D (Homo sapiens, UniProt Q13557)", "remaining activity [%]": 23}
{"target": "PRKACA (Homo sapiens, UniProt P17612)", "remaining activity [%]": 106}
{"target": "OXSR1 (Homo sapiens, UniProt O95747)", "remaining activity [%]": 100}
{"target": "NEK2 (Homo sapiens, UniProt P51955)", "remaining activity [%]": 95.5}
{"target": "STK39 (Homo sapiens, UniProt Q9UEW8)", "remaining activity [%]": 104}
{"target": "CHEK2 (Homo sapiens, UniProt O96017)", "remaining activity [%]": 48.3}
{"target": "Tyrosine-protein kinase Lyn, isoform B (LYN, Homo sapiens, UniProt P07948)", "remaining activity [%]": 14.7}
{"target": "STK10 (Homo sapiens, UniProt O94804)", "remaining activity [%]": 52.8}
{"target": "MAPK9 (Homo sapiens, UniProt P45984)", "remaining activity [%]": 80.3}
{"target": "Cyclin-dependent kinase 5, with p25 (CDK5, Homo sapiens, UniProt Q00535)", "remaining activity [%]": 20.4}
{"target": "Protein kinase C beta type, isoform beta-I (PRKCB, Homo sapiens, UniProt P05771)", "remaining activity [%]": 98.5}
{"target": "TGFBR2 (Homo sapiens, UniProt P37173)", "remaining activity [%]": 106}
{"data": "Series 2", "target": "Hepatocyte nuclear factor 3-alpha (Foxa1, Mus musculus, UniProt P35582, residues 1-468, full length assumed)", "technique": "EMSA with sequencing", "form": "double-stranded DNA, one strand shown", "medium": "in vitro", "tested at": "10 and 20 nM", "notes": "whole designed probe, mean of two concentrations, ends assumed", "relative to": "negative control set to 0", "reading": "higher = stronger binding", "shared flanks, not repeated": "GTGAGCGGTGCCCATTGATGGGGAAC … TTTCACTGGGATCGTGGGGAC", "Target sequence (chain)": "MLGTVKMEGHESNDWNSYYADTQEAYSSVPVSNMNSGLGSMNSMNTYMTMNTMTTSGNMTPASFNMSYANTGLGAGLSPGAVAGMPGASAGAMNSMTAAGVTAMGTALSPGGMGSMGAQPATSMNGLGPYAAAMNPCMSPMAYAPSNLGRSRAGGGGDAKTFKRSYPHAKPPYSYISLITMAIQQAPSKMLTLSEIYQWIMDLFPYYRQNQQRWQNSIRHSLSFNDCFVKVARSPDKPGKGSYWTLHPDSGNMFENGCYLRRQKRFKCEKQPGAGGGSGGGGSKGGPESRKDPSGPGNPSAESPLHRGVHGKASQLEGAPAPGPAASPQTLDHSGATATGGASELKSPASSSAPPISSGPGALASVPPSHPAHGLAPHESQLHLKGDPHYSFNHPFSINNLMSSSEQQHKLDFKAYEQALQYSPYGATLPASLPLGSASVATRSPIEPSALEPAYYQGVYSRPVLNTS"}
{"Oligonucleotide": "TTTTAAGTGAAATCAACTGAAACCTTACTTTTTTTTGCTTTTATACCTAAAATAGAGGATTTAGATATATTTTCTAGGAACGATGATGTAATATGTAATCTAGGAATTTTGGTATTGTTTGAAATATTTTCTCATGGGGACACACCACTAAATTTGTCACCTCTAAAACAGTACTTAGGTTAAATGCTTTTTA", "normalised bound fraction": "-0.00278 ratio"}
{"Oligonucleotide": "TACAGGAAATTTATCAGCTCTAGATGATTCTGTTAGCTCGTGATCAATGTTGAGCCTAAAAAGAACGTGGCCGAATCAGTGGTTTGTAACCCAAGATTATTCTAATCAGTCAGTCCGGGGCTATAATGGTAGTTGGATGTTTTTAATACTATCTTTGGCAAATTCCCATATATTCACATACAGCATAGTTACA", "normalised bound fraction": "-0.0653 ratio"}
{"Oligonucleotide": "TCATGAAAGGCTTTGCATGCCATTTTAACAAGTACGGGCTTTATCTTAACCCTCTAGGAAACAGGGAGGCACATGAACACCCTAAGTAGGAAAGTAAATAGTTACTTCTAATTTGTGTTTTAGAAAGGTTCTGGAGCAGTCTGGAAGATGTAATGGTTGCTTGTCAGCTCATGAGCTGGTGGGGTTGGCTGCT", "normalised bound fraction": "0.21 ratio"}
{"Oligonucleotide": "TATAGACTGCGGCAGCCCAGTTCAAAAGAAACAGGCTTTAAAGAAAAGCAAACTGGTGTCCAATGACATCAAATAGAACCAGGAGCTCCAAAGTACATAAGCTTCTTGTCTCTGTTCTTATTTATTTATTGCTGTTGCTCACGCCAGTCAGGGCAGCAGGGGGCTGGCAGGCTTACTCATGGGCCCAGATAAG", "normalised bound fraction": "0.296 ratio"}
{"Oligonucleotide": "ATACAGCCTAGAACTCCTGGGCTCAAAAGATCCTCCCACCTCAGCCTCCTGAGTAGCTAGGACTACAGAGGGGGATGCCAACATGTGTGGCAATATTTACTTATTTATTTAGAAAAGAGGTCTCGCTTTGTTGCCCAGGCTAGTGTGCAGTGGCGCAATCTTGGCTCACTGCAACCTCTTCCTCCCAAGTTCA", "normalised bound fraction": "0.397 ratio"}
{"data": "Series 3", "target": "Histone acetyltransferase KAT6A, winged helix 2, GST fusion (KAT6A, Homo sapiens, UniProt Q92794, residues 85-181)", "technique": "protein binding microarray", "form": "double-stranded DNA, one strand shown", "medium": "in vitro", "tested at": "not given", "notes": "8-mer, flanks averaged, mean of 2 arrays, mostly near background", "relative to": "not given", "reading": "higher = stronger binding", "Target sequence (chain)": "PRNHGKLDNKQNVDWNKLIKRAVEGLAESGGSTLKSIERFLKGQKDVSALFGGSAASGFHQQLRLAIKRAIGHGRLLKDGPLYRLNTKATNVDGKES"}
{"Oligonucleotide": "AAGGTGCT", "E-score": -0.133}
{"Oligonucleotide": "CATAGCGA", "E-score": 0.163}
{"Oligonucleotide": "AAGCTTTA", "E-score": -0.117}
{"Oligonucleotide": "AAATAAGG", "E-score": -0.00645}
{"Oligonucleotide": "GTGGCGTA", "E-score": 0.0404}
{"Oligonucleotide": "AAATTGCC", "E-score": 0.0666}
{"Oligonucleotide": "CCCCAACA", "E-score": -0.0631}
{"Oligonucleotide": "CTGACGGA", "E-score": -0.0612}
{"data": "Series 4", "Compound": "COc1cc(-c2cn(C3CCc4ccccc4N(CC(F)(F)F)C3=O)nn2)ccc1-n1ccc(C)n1 (centres unmarked)", "observed": "cell-free assay", "technique": "competition with immobilised ligand", "tested at": "1 µM"}
{"target": "Tyrosine-protein kinase ABL1, phosphorylated (ABL1, Homo sapiens, UniProt P00519, H396P)", "remaining binding [%]": 70}
{"target": "STK32B (Homo sapiens, UniProt Q9NY57)", "remaining binding [%]": 85}
{"target": "EIF2AK1 (Homo sapiens, UniProt Q9BQI3)", "remaining binding [%]": 93}
{"data": "Series 5", "target": "CREB3, bZIP domain (human)", "technique": "DHFR protein complementation", "medium": "yeast", "notes": "single substitutions, most at no-binding floor", "relative to": "wild-type JUN-FOS pair", "reading": "higher = stronger binding", "parent": "JUN, bZIP domain (human); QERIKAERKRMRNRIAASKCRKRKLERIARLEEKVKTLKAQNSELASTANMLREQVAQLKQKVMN; partner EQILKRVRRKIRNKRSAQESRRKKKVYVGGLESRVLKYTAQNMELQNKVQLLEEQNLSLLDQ"}
{"Variant": "K34N", "binding fitness": "-1.49 natural log"}
{"Variant": "R53D", "binding fitness": "-1.56 natural log"}
{"Variant": "L31V", "binding fitness": "-1.53 natural log"}
{"Variant": "E32P", "binding fitness": "-1.45 natural log"}
{"Variant": "K36E", "binding fitness": "-1.52 natural log"}
{"Variant": "E44S", "binding fitness": "-1.42 natural log"}
{"Variant": "I28M", "binding fitness": "-1.51 natural log"}
{"Variant": "Q58H", "binding fitness": "-1.56 natural log"}
{"note": "Repeated from above (series 5):"}
{"Variant": "E32P", "binding fitness": "-1.45 natural log"}
{"Variant": "K36E", "binding fitness": "-1.52 natural log"}
{"Variant": "E44S", "binding fitness": "-1.42 natural log"}
